Published values of several laboratories.
Every numbered part comes from another study and shows a few of its results, in no order. Values joined by “and” are separate records of one study, mostly repeats; a detail may differ.
UniProt P20794, sequence (whole entry, looked up): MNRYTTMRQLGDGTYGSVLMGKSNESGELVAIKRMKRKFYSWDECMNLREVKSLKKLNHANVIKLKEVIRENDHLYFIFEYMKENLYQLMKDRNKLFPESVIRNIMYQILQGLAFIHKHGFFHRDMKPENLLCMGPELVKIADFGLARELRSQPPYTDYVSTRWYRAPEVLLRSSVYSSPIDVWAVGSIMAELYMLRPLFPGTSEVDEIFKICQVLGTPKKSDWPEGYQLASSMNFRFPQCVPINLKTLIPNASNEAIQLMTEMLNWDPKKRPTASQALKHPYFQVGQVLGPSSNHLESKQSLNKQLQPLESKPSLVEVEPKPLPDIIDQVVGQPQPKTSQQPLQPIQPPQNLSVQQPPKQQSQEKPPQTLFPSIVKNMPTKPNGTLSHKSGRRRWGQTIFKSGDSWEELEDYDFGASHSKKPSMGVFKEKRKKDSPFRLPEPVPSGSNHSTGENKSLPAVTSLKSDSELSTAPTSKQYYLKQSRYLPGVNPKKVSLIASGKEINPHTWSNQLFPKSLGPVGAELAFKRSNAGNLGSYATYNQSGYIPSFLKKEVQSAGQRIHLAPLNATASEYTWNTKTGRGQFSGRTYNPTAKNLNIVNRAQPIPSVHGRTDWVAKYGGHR
UniProt P42336, sequence (whole entry, unmodified, looked up): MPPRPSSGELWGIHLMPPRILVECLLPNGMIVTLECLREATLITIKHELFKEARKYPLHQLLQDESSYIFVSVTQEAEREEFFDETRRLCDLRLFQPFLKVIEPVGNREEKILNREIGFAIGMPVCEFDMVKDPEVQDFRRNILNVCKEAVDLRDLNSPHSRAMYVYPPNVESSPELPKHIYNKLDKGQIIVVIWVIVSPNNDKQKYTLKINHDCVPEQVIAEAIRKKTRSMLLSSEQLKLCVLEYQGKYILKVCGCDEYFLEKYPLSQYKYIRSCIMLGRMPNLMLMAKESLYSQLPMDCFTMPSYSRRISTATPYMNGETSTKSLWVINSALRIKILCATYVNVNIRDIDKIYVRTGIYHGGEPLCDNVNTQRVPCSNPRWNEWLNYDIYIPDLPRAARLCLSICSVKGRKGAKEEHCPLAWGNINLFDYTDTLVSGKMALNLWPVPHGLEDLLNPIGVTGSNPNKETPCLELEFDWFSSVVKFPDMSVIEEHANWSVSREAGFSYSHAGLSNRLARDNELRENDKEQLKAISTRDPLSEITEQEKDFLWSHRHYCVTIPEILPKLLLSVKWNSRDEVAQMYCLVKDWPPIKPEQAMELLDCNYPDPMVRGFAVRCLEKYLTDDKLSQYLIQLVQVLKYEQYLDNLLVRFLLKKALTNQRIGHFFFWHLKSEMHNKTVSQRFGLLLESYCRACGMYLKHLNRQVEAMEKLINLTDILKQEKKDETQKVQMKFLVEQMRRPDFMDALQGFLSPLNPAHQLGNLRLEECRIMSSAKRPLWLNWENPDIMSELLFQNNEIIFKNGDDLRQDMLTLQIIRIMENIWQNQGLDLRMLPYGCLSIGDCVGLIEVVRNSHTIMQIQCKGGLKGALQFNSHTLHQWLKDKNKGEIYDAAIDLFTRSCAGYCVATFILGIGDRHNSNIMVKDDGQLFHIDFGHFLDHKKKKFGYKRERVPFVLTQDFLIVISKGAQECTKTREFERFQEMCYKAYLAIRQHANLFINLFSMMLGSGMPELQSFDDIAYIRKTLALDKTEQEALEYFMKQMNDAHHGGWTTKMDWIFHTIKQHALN
UniProt O75385, sequence (whole entry, looked up): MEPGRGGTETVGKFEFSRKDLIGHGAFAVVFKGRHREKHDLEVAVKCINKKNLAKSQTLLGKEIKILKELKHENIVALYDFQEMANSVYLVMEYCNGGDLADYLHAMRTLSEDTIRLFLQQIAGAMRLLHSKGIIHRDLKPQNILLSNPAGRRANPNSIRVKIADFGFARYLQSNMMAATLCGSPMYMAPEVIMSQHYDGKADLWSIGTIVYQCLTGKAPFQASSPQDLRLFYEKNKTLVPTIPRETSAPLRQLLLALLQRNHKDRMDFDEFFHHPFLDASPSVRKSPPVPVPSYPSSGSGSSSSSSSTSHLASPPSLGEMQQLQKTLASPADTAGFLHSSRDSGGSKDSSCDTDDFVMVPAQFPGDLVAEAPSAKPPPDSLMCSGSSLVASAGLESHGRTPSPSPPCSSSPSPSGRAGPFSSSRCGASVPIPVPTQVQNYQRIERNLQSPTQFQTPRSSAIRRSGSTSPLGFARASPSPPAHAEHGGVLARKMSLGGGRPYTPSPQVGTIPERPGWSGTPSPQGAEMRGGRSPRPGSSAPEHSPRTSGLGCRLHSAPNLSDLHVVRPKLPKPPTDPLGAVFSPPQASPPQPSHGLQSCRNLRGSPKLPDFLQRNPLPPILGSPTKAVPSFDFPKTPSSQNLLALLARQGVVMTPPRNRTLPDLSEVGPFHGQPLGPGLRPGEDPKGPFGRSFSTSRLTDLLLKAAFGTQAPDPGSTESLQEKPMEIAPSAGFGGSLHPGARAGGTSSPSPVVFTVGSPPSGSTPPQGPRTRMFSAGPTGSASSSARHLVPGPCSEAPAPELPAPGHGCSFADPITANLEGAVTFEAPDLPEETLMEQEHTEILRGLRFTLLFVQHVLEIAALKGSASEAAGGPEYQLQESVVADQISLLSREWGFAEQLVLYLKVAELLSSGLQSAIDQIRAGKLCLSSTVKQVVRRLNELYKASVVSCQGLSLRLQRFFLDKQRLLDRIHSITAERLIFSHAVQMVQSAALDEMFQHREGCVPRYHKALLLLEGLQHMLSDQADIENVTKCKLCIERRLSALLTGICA
UniProt O15146, sequence (whole entry, looked up): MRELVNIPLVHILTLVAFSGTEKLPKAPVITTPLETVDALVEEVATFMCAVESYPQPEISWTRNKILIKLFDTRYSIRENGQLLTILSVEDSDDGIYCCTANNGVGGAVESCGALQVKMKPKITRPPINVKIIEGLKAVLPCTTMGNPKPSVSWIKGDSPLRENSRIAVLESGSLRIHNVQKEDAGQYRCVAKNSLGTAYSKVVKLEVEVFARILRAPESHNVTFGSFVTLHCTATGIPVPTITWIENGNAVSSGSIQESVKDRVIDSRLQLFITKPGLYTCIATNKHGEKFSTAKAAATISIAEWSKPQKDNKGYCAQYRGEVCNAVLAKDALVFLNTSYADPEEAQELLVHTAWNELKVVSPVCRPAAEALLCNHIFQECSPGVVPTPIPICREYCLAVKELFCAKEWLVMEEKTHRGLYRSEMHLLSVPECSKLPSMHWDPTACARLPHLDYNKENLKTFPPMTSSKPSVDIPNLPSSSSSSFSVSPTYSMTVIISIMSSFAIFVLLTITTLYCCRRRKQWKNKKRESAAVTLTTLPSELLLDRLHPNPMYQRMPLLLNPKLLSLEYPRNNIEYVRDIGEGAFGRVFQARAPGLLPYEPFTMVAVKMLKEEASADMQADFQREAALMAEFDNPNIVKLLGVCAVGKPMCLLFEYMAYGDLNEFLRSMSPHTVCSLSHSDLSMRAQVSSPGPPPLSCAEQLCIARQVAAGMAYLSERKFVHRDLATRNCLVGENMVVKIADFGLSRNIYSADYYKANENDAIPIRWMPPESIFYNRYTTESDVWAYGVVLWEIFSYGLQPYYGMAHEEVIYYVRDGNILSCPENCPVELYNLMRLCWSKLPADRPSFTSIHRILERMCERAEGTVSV

Sample 1 — tested at: 1 µM; measurement: remaining binding
SMILES: CC(=O)N1CCC(c2ccc(C(=O)NC3=NCCN3)cc2C(F)(F)F)CC1
Tyrosine-protein kinase ABL1, non-phosphorylated (ABL1, Homo sapiens, UniProt P00519, F317I); binding, competition with immobilised ligand: 77%
Serine/threonine-protein kinase BRSK2 (BRSK2, Homo sapiens, UniProt Q8IWQ3); cell-free assay, competition with immobilised ligand: 100%
Serine/threonine-protein kinase MARK1 (MARK1, Homo sapiens, UniProt Q9P0L2); cell-free assay, competition with immobilised ligand: 100%
Mitogen-activated protein kinase kinase kinase 12 (MAP3K12, Homo sapiens, UniProt Q12852); cell-free assay, competition with immobilised ligand: 100%
Muscle, skeletal receptor tyrosine-protein kinase (MUSK, Homo sapiens, UniProt O15146); cell-free assay, competition with immobilised ligand: 90%
Calcium/calmodulin-dependent protein kinase type 1G (CAMK1G, Homo sapiens, UniProt Q96NX5); cell-free assay, competition with immobilised ligand: 100%
Serine/threonine-protein kinase 32B (STK32B, Homo sapiens, UniProt Q9NY57); cell-free assay, competition with immobilised ligand: 100%
Mast/stem cell growth factor receptor Kit (KIT, Homo sapiens, UniProt P10721, V559D); cell-free assay, competition with immobilised ligand: 100%
Serine/threonine-protein kinase MRCK gamma (CDC42BPG, Homo sapiens, UniProt Q6DT37); competition binding: 93%
Serine/threonine-protein kinase MAK (MAK, Homo sapiens, UniProt P20794); cell-free assay, competition with immobilised ligand: 61%
Phosphatidylinositol 4,5-bisphosphate 3-kinase catalytic subunit alpha isoform (PIK3CA, Homo sapiens, UniProt P42336, I800L); cell-free assay, competition with immobilised ligand: 94%
Serine/threonine-protein kinase ULK1 (ULK1, Homo sapiens, UniProt O75385); cell-free assay, competition with immobilised ligand: 85%
Mitogen-activated protein kinase kinase kinase 20 (MAP3K20, Homo sapiens, UniProt Q9NYL2); cell-free assay, competition with immobilised ligand: 88%
NT-3 growth factor receptor (NTRK3, Homo sapiens, UniProt Q16288); cell-free assay, competition with immobilised ligand: 100%

Sample 2 — cell line: A-375; tested at: 100 µM; time: 36 h; measurement: viability
O=C(O)c1cn(-c2ccc(F)cc2)c2cc(N3CCNCC3)c(F)cc2c1=O: 103%
Nc1nc2[nH]cc(CCc3ccc(C(=O)N[C@@H](CCC(=O)O)C(=O)O)cc3)c2c(=O)[nH]1: 56.4% and 69.3%
COc1cc(CCC(=O)O)ccc1O: 109%
C[C@H]1C[C@H]2[C@@H]3CCC4=CC(=O)C=C[C@]4(C)[C@@]3(F)[C@@H](O)C[C@]2(C)[C@@]1(O)C(=O)CO: 90.4%

Sample 3 — observed: AlphaScreen signal; method: AlphaScreen counter screen; sample: His6 peptide without bromodomain; tested at: 50 µM; setting: assay interference check; measurement: inhibition
NS(=O)(=O)c1ccc(NN=C2C(=O)Nc3ccc(Br)cc32)cc1: 22.2%
CNC(=O)c1cccc(-c2ccc3c(N4CCOC[C@@H]4C)nc(N4CCOC[C@@H]4C)nc3n2)c1: -26.1%
O=C1Cc2c([nH]c3ccc([N+](=O)[O-])cc23)-c2ccccc2N1: 11.8%
CC(=O)Nc1cccc(NC(=O)CSc2ccc3nnc(-c4cccc(F)c4)n3n2)c1: 1.2%
NC(=O)Nc1cc(-c2cccc(F)c2)sc1C(=O)N[C@H]1CCCNC1: 27.8%
CC(C)(C)n1nc(-c2cccc3ccccc23)c2c(N)ncnc21: 12.3%
COc1ccc(-c2nnc3ccc(SCC(=O)Nc4cccc(Cl)c4)nn23)cc1OC: 26.6%
CC(C)n1cnc2c(NCc3ccccc3O)nc(NCCCO)nc21: 8.8%
COc1cc(C=C2SC(=O)NC2=O)c(Br)cc1O: -4.1%
CN[C@@H]1C[C@H]2O[C@@](C)([C@@H]1OC)n1c3ccccc3c3c4c(c5c6ccccc6n2c5c31)C(=O)N[C@H]4O: 39%
Nc1nc(SCc2ccc(Cl)cc2Cl)c2nc[nH]c2n1: 29%
O=S(=O)(NCCNCC=Cc1ccc(Br)cc1)c1cccc2cnccc12: 16.4%
CCCCCCOC(=O)[C@]1(O)C[C@@H]2O[C@@]1(C)n1c3ccccc3c3c4c(c5c6ccccc6n2c5c31)C(=O)NC4: 21.2%
N#CC(=Cc1cccc(F)c1)c1nc2ccccc2s1: 7.9%
Cc1cc(NC(=O)c2sc(Nc3ccccc3)nc2N)no1: 25%

Sample 4 — observed: enzyme activity; action: inhibitor; tested at: 0.5 µM; reference: control; measurement: remaining activity
Target: Mitogen-activated protein kinase kinase kinase 9 (MAP3K9, Homo sapiens, UniProt P80192)
UniProt P80192, sequence (whole entry, looked up): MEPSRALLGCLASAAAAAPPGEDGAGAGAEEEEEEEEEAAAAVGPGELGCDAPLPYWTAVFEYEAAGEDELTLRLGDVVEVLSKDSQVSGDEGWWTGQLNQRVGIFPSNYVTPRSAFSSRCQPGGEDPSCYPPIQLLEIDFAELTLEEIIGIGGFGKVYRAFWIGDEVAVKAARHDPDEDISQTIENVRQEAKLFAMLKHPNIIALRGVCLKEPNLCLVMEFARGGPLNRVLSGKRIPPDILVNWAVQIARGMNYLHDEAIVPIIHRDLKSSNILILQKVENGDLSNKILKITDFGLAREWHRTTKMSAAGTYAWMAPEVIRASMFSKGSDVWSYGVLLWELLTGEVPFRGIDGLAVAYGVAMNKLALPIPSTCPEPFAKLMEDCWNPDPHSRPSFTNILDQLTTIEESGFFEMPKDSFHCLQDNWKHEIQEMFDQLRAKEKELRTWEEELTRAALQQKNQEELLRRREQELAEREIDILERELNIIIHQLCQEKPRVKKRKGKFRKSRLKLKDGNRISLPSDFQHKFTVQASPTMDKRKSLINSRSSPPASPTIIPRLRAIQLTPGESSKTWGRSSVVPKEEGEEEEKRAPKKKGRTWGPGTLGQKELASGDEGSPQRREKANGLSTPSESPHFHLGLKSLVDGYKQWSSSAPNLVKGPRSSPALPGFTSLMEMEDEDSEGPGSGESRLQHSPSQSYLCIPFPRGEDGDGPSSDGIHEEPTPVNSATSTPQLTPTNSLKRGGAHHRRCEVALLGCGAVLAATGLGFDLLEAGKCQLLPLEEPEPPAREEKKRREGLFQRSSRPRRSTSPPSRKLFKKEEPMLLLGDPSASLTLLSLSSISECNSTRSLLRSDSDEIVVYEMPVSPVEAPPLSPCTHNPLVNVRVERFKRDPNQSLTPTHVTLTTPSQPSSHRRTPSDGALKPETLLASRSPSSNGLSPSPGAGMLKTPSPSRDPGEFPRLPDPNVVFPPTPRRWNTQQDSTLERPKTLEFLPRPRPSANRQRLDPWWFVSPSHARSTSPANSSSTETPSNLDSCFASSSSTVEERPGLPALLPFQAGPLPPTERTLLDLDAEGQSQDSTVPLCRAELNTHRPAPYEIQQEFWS
Clc1ccc(Nc2nnc(Cc3ccncc3)c3ccccc23)cc1: 113%
c1cc(-c2cnn3cc(-c4ccc(OCCN5CCCCC5)cc4)cnc23)ccn1: 70.5%
CC(C)(C)c1nc2c3cc[nH]c(=O)c3c3cc(F)ccc3c2[nH]1: 20.4%
CC(C)n1cnc2c(Nc3cccc(Cl)c3)nc(NCCO)nc21: 27.2%
O=C1NC(=O)/C(=C/c2ccc3c(c2)OC(F)(F)O3)S1: 101%
O=C(O)/C=C/c1cc(Br)c(Br)c(Br)c1Br: 101%
CCCCc1c(-c2ccc(O)cc2)[nH]c2nccnc12: 37.3%
CC(C)N(CCC(=O)c1ccc2ccccc2c1)Cc1ccccc1: 104%
O=C(c1ccccc1)c1ccc(N2CCOCC2)cc1O: 112%
NC(=O)c1ccc(-c2nc(-c3ccc4c(c3)OCCO4)c(-c3ccccn3)[nH]2)cc1: 101%
FC(F)(F)c1ccc(/C=C/c2nc(COc3ccc(CCCCn4ccnn4)cc3)co2)cc1: 105%
Nc1nc(Nc2ccc(S(N)(=O)=O)cc2)nn1C(=S)Nc1c(F)cccc1F: -0.373%
O=c1c(-c2ccc(F)cc2)c(-c2ccncc2)[nH]n1-c1ccc(Cl)cc1: 103%

A few entries again (sample 4):
CC(C)(C)c1nc2c3cc[nH]c(=O)c3c3cc(F)ccc3c2[nH]1: 20.4%
CCCCc1c(-c2ccc(O)cc2)[nH]c2nccnc12: 37.3%
O=c1c(-c2ccc(F)cc2)c(-c2ccncc2)[nH]n1-c1ccc(Cl)cc1: 103%
c1cc(-c2cnn3cc(-c4ccc(OCCN5CCCCC5)cc4)cnc23)ccn1: 70.5%
CC(C)n1cnc2c(Nc3cccc(Cl)c3)nc(NCCO)nc21: 27.2%
NC(=O)c1ccc(-c2nc(-c3ccc4c(c3)OCCO4)c(-c3ccccn3)[nH]2)cc1: 101%
CC(C)N(CCC(=O)c1ccc2ccccc2c1)Cc1ccccc1: 104%
